# Published values pooled from the literature.
# Protocols differ between the studies behind these lines. Several values in a cell are separate wells, animals, samples, runs or records. Numbers after ± are the reported error.
SMILES,assay,system,conditions,how to read,measurement,value
Nc1ncnc2c1ncn2[C@@H]1O[C@@H]2COP(=O)([S-])O[C@@H]3[C@H](O)[C@@H](COP([O-])(=S)O[C@H]2[C@H]1O)O[C@H]3n1cnc2c(N)ncnc21.[Na+].[Na+] (stereo partly drawn),,"non-tumor-bearing mice, blood","intravenous, 1 mg/kg, toxicity study",,monocyte percentage,5.5 ± 6.7%
CCN1[C@@H](C(=O)NC23CCC(C(=O)O)(CC2)CC3)[C@H](c2cccc(Cl)c2F)[C@]2(C(=O)Nc3cc(Cl)ccc32)C12CCCCC2,,patients with advanced solid tumours,"oral, 150 mg",,Lymphocytopenia incidence,62.5%
C[C@@H](NC(=O)N1C(=O)[C@H](Cc2ccnc(N)c2)[C@H]1C(=O)O)C1CCCCC1,,healthy adult Chinese volunteers,"continuous intravenous infusion, 0.6 mg/kg/h, 5-day infusion, CTCAE 5.0 grading",,incidence of urine occult blood positive,0%
C=CCNc1c(O)cc2c(O)c1C[C@@H](C)C[C@H](OC)[C@H](O)[C@@H](C)/C=C(\C)[C@H](OC(N)=O)[C@@H](OC)/C=C\C=C(/C)C(=O)N2,measured: first-degree AV block,"patients with unresectable or metastatic GIST, STS or other tumours","intravenous, 500 mg/m^2",,treatment-emergent adverse events,57%
COc1cccc(Oc2ccccc2NC(=O)CNC(=O)c2cccc3ccccc23)c1,,"esterase-deficient SCID mice, male","oral, 100 mg/kg/day, 14 days, toxicity study",,serum potassium,9.6 mmol/L and > 10 mmol/L and 8.8 mmol/L
CN1CC[C@@H](c2c(O)cc(O)c3c(=O)cc(-c4ccc(C(F)(F)F)cc4Cl)oc23)[C@@H]1CO,measured: Pyrexia,B-cell malignancies or AML,"oral, 50 mg, continuous dosing",,patients with adverse event,0%
CCNCCCNC/C=C\CNCCCNCC,,"human, advanced solid tumours","intravenous, dose not given",relative to: patients,"serious TEAE, disease progression",6.5%
Nc1nc2cc(-c3ccc4ncc(C(=O)N5CCOCC5)n4c3)ccc2o1,,advanced solid tumour patients,"21 days, once-daily dosing, range over",,tolerable dose range,100 to 150 mg
C[C@@H]1NC(=O)[C@H](CCCCNC(=O)CO/N=C/C(=O)NCCCC[C@@H]2NC(=O)[C@@H](Cc3ccccc3)NC(=O)[C@H](CC(=O)O)NC(=O)CNC(=O)[C@H](CCCNC(=N)N)NC2=O)NC(=O)CNC(=O)[C@@H]2CCCN2C(=O)[C@H](CCCCNC(=O)CO/N=C/C(=O)NCCCC[C@@H]2NC(=O)[C@@H](Cc3ccccc3)NC(=O)[C@H](CC(=O)O)NC(=O)CNC(=O)[C@H](CCCNC(=N)N)NC2=O)NC(=O)[C@H](CCCCNC(=O)CCNC(=O)CCNC(=O)CCNC(=O)[C@H](CCCCN)NC(=O)[C@H](Cc2ccccc2)NC(=O)CNC(=O)CN2CCCNCCNCCCNCC2)NC(=O)[C@H](CCCCNC(=O)CO/N=C/C(=O)NCCCC[C@@H]2NC(=O)[C@@H](Cc3ccccc3)NC(=O)[C@H](CC(=O)O)NC(=O)CNC(=O)[C@H](CCCNC(=N)N)NC2=O)NC(=O)CNC(=O)[C@@H]2CCCN2C(=O)[C@H](CCCCNC(=O)CO/N=C/C(=O)NCCCC[C@@H]2NC(=O)[C@@H](Cc3ccccc3)NC(=O)[C@H](CC(=O)O)NC(=O)CNC(=O)[C@H](CCCNC(=N)N)NC2=O)NC1=O [copper-64 labelled],RP-HPLC,mouse serum,"24 h, 37 °C",,intact fraction,85.3%
[O-][S+]1CCc2nc(N3CCC(c4ncc(Cl)cn4)CC3)nc(NC3(CO)CCC3)c21 (stereo not drawn),measured: Diarrhoea,healthy male humans,"multiple doses, all groups",,adverse event incidence,6.3%
CC(C)CC(=O)OC[C@H]1O[C@@](C#N)(c2ccc3c(N)ncnn23)[C@H](O)[C@@H]1O,,human plasma,9 µM,,fraction bound,0.802
CC(C)(O)c1cc(Nc2cc(Oc3cn(C4CC4)nc3C3CCOCC3)ccn2)ccn1,Cough,"patients with advanced cancer, grade 4 glioma expansion","oral, 50 mg twice daily, grade ≥3, 2 weeks on/2 weeks off schedule",,treatment-related adverse events,0%
O=C([O-])CN1CCN(CC(=O)[O-])CCN(CC(=O)NCC2CCC(C(=O)N[C@@H](Cc3ccc4ccccc4c3)C(=O)NCCCC[C@H](NC(=O)N[C@@H](CCC(=O)O)C(=O)O)C(=O)O)CC2)CCN(CC(=O)[O-])CC1.[177Lu+3] (stereo partly drawn),ex vivo biodistribution,"mouse 22Rv1 xenograft, tumour",96 h post-injection,,tumour uptake,1.12 ± 0.01 %ID/g
CCc1ccc(CC/C=C/c2ccc3c(c2)C(=O)CC3)cc1,,"Sprague-Dawley rat, male","oral, 30 mg/kg/day, 14 days",,Neutrophil percentage,10.6%
Cc1ccc(N=Nc2ccc3[nH]cc(CCN(C)C)c3c2)cc1,light irradiation,solution,added: light 385 nm,,cis isomer at photostationary state,87%
COc1ccc(F)cc1C(=O)NCc1ccc(-c2nn([C@@H](C)C(F)(F)F)c(N)c2C(N)=O)cc1,,"human, plasma","oral, 200 mg once daily",,AUCtau,114000 ng·h/mL
N[C@@H]1c2ccccc2OC12CCN(c1cnc3c(N4CCCc5ncccc54)n[nH]c3n1)CC2,,patients advanced metastatic solid tumours,"oral, 60 mg once daily, pooled RP2D cohorts",,incidence of any serious TEAE,28%
C[C@]12C=CC(=O)C=C1C(CSC[C@H](N)C(=O)O)C[C@@H]1[C@@H]2CC[C@]2(C)C(=O)CC[C@@H]12 (stereo partly drawn),,"human, postmenopausal women, serum","oral, 25 mg daily, 1 year, UGT2B17 and GSTA1 genotypes",,serum concentration,28 nM
C[C@]1(CO)Cc2ncn(-c3ccc(C#N)c(Cl)c3)c2C(=O)O1,,human,"10 mg, European food-effect part, fed",,drug-related TEAEs,8.3%
COC[C@]12CN(C)[C@@H]3[C@@H]4[C@H](OC)[C@H]1[C@@]3([C@@H](OC)C[C@H]2O)[C@@H]1C[C@@]2(O)[C@H](OC(=O)c3ccccc3)[C@@H]1[C@]4(OC(C)=O)[C@@H](O)[C@@H]2OC,,"Sprague-Dawley rat, plasma","oral, dose not given, with H in PCW extract",,MRT(0-t),2.7 ± 1.07 h
CC(=O)c1c(C)c2cnc(Nc3ccc(C4CCN(CCS(C)(=O)=O)CC4)cn3)nc2n(C2CCCC2)c1=O,,"human, plasma","oral, 75 mg twice daily, day 1, single dose, added: letrozole",,Vd,1050 L
Cn1ncc(-c2nc(N[C@H]3CC[C@H](N)CC3)ncc2Cl)c1CC1CC1,phase I dose escalation,human patients,"dose not given, treatment-related grade 3 or higher",,aspartate aminotransferase increase incidence,3.2%
COc1cc(N2CCC(N3CCN(C)CC3)CC2)ccc1Nc1ncnc(Nc2ccccc2S(=O)(=O)C(C)C)n1,measured: Pyrexia,Japanese patients with solid tumours,"oral, dose not given, all grades",,treatment-emergent adverse events,5 number (percent)
CO[C@H]1C[C@@H]2CC[C@@H](C)[C@@](O)(O2)C(=O)C(=O)N2CCCC[C@H]2C(=O)O[C@H]([C@H](C)C[C@@H]2CC[C@@H](OC(=O)NCCOCCOCCOCCOCCOCCOCCOCCOCCC(=O)N3CCc4cc(Cn5nc(-c6ccc7oc(N)nc7c6)c6c(N)ncnc65)ccc4C3)[C@H](OC)C2)C[C@@H](O)[C@H](C)/C=C(\C)[C@@H](O)[C@@H](OC)C(=O)[C@H](C)C[C@H](C)/C=C/C=C/C=C/1C,"phase 1 dose escalation, measured: fatigue",advanced solid tumour patients,"intravenous, 8 mg weekly, any grade",,TRAE incidence,43.8%
CC[C@H](C)CCCCC(=O)N[C@@H](CCN)C(=O)N[C@H](C(=O)N[C@@H](CCN)C(=O)N[C@H]1CCNC(=O)[C@H]([C@@H](C)O)NC(=O)[C@H](CCN)NC(=O)[C@H](CCN)NC(=O)[C@H](CC(C)C)NC(=O)[C@@H](Cc2ccccc2)NC(=O)[C@H](CCN)NC1=O)[C@@H](C)O,,"critically ill patients, low initial AUC group, plasma","dose not given, median",,AUC(0-24 h) at steady state,41800 ng·h/mL
Clc1ccc(-c2cc(Cl)c(Cl)cc2Cl)cc1Cl,,cow whole milk,200 nM,relative to: milk fat over skim milk,milk fat partition ratio,368
COc1ccc2nc3cc(Cl)ccc3c(Nc3cc(CN4CCCC4)c(O)c(CN4CCCC4)c3)c2n1,,"mouse, blood","intraperitoneal, 57 mg/kg",,AST activity,57.4 U/L
C1=Cc2nc1cc1ccc([n-]1)c(C1CC1)c1nc(cc3ccc([n-]3)c2C2CC2)C=C1.CC(=O)[O-].[Mn+3],LC-MS/MS,"Sprague-Dawley rat, plasma","oral gavage, dose not given, 60 min",,mean plasma concentration,250 ng/mL
Cn1c(-c2ccc(C(N)=O)cc2F)nnc1C(C)(C)Oc1c(F)cc(Cl)cc1F,,human,"oral, 1 mg, single ascending dose",,vessel puncture site pain,0%
O=S(=O)(Nc1ccccc1)c1ccc(NC(=S)Nc2ccccc2)cc1,,"mouse, male, lung","oral, 20 mg/kg daily, 14 days",relative to: body weight,relative organ weight,0.87%
CC[C@H](C)[C@H](NC(=O)[C@H](Cc1ccccc1)NC(=O)[C@H](CCC(=O)O)NC(=O)[C@H](CCCNC(=N)N)NC(=O)[C@H](C)NC(=O)[C@H](C)NC(=O)[C@H](CCC(N)=O)NC(=O)[C@H](CCC(=O)O)NC(=O)[C@H](CCC(=O)O)NC(=O)[C@H](CC(C)C)NC(=O)[C@H](Cc1ccc(O)cc1)NC(=O)[C@H](CO)NC(=O)[C@H](CO)NC(=O)[C@@H](NC(=O)[C@H](CC(=O)O)NC(=O)[C@H](CO)NC(=O)[C@@H](NC(=O)[C@H](Cc1ccccc1)NC(=O)[C@@H](NC(=O)CNC(=O)[C@H](CCC(=O)O)NC(=O)[C@H](C)NC(=O)CCc1cnc[nH]1)[C@@H](C)O)[C@@H](C)O)C(C)C)C(=O)N[C@@H](C)C(=O)N[C@@H](Cc1c[nH]c2ccccc12)C(=O)N[C@@H](CC(C)C)C(=O)N[C@H](C(=O)N[C@@H](CCCNC(=N)N)C(=O)NCC(=O)N[C@@H](CCCNC(=N)N)C(=O)N[C@@H](CCCCNC(=O)COCCOCCNC(=O)COCCOCCNC(=O)CC[C@H](NC(=O)CCCCCCCCCCCCCCCCC(=O)O)C(=O)O)C(=O)NCC(=O)NCC(=O)N[C@@H](CO)C(=O)N[C@@H](CCSC)C(=O)N[C@H](C(=O)N[C@@H](CCCCNc1c(NCCCCCN(O)C(=O)CCC(=O)NCCCCCN(O)C(=O)CCC(=O)NCCCCCN(O)C(C)=O)c(=O)c1=O)C(=O)O)C(C)C)C(C)C [zirconium-89 labelled],ex vivo gamma counting,"male Sprague-Dawley rat, heart","intravenous, 1 nmol, 24 h",,tissue uptake,0.136 %ID/g and 0.127 %ID/g and 0.134 %ID/g
O=c1cc(-c2ccc(O)c(O)c2)oc2cc(O)cc(O)c12,,"Sprague-Dawley rat, male, obese, urine","oral, 100 mg/kg neohesperidin, 48 h",relative to: dose,urinary recovery,0.019 ± 0.002%
O=C(O)CCCOc1ccc(F)cc1-c1cc(-c2ccccc2C(F)(F)F)n(-c2ccccc2)n1,measured: ovaries,"Crl:CD(SD) rats, female","iv, 25 µg/kg, 1 day",,relative organ weight,39.8 ± 6.9 mg%
CC1(C)[C@H](C(=O)O[C@H](C#N)c2cccc(Oc3ccccc3)c2)[C@@H]1C=C(Br)Br,measured: CYP1A2,"human, age 6 months, recombinant human CYP1A2",0.1 µM,,enzyme contribution to clearance,0.08%
O=C(Nc1ccccc1)C1CCN(C(=O)Oc2cccnc2)CC1,,healthy women,"oral, 20 mg, 7 days",,adverse event Rash,7.1%
CC(C)C[C@H](NC(=O)[C@H](CCCCN)NC(=O)OCC1c2ccccc2-c2ccccc21)C(=O)N[C@H](C(=O)N[C@@H](Cc1ccccc1)C(=O)N[C@@H](Cc1ccccc1)C(=O)N[C@@H](CCCCN)C(=O)NCC(=O)N[C@@H](Cc1ccccc1)C(=O)N[C@@H](C)C(=O)N[C@@H](Cc1c[nH]c2ccccc12)C(=O)N[C@@H](CC(N)=O)C(=O)N[C@H](C(=O)N[C@H]1CSSC[C@@H](C(=O)N[C@@H](Cc2c[nH]cn2)C(=O)N[C@@H](CCCNC(=N)N)C(=O)N[C@@H](CCCNC(=N)N)C(=O)N[C@@H](C)C(=O)N[C@@H](CC(N)=O)C(N)=O)NC(=O)[C@H](C(C)C)NC(=O)[C@H](CCCNC(=N)N)NC(=O)[C@H](C(C)C)NC(=O)CNC(=O)[C@H](CC(N)=O)NC(=O)[C@H](CCCNC(=N)N)NC(=O)[C@H](Cc2ccc(O)cc2)NC(=O)[C@H](C(C)C)NC1=O)C(C)C)C(C)C,,"ICR mouse, blood","intramammary, 5 mg/kg, day 5, 3 d dosing",,AST,25.4 ± 0.63 IU/L
COc1ccc(-c2c(-c3ccc(C#N)c(F)c3)nc(N3CCC(N)CC3)n(C)c2=O)cc1F,measured: Thrombocytopenia,neuroendocrine neoplasm patients,"oral, 60 mg, any grade, dose expansion",,treatment-related adverse event incidence,69%
COc1cc2c(Oc3ccc4[nH]c(C)cc4c3F)ccnc2cc1OCC1(N)CC1,,paediatric recurrent refractory sarcoma,8 mg,,grade 3 Leukopenia,0%
CC(C)n1c(C2CCNCC2)nc2c([N+](=O)[O-])c(Br)c(Br)cc21,measured: Pneumonia,AML patients,"dose not given, all doses",,grade ≥3 adverse events,32%

# Repeated from above:
SMILES,assay,system,conditions,how to read,measurement,value
CC(C)C[C@H](NC(=O)[C@H](CCCCN)NC(=O)OCC1c2ccccc2-c2ccccc21)C(=O)N[C@H](C(=O)N[C@@H](Cc1ccccc1)C(=O)N[C@@H](Cc1ccccc1)C(=O)N[C@@H](CCCCN)C(=O)NCC(=O)N[C@@H](Cc1ccccc1)C(=O)N[C@@H](C)C(=O)N[C@@H](Cc1c[nH]c2ccccc12)C(=O)N[C@@H](CC(N)=O)C(=O)N[C@H](C(=O)N[C@H]1CSSC[C@@H](C(=O)N[C@@H](Cc2c[nH]cn2)C(=O)N[C@@H](CCCNC(=N)N)C(=O)N[C@@H](CCCNC(=N)N)C(=O)N[C@@H](C)C(=O)N[C@@H](CC(N)=O)C(N)=O)NC(=O)[C@H](C(C)C)NC(=O)[C@H](CCCNC(=N)N)NC(=O)[C@H](C(C)C)NC(=O)CNC(=O)[C@H](CC(N)=O)NC(=O)[C@H](CCCNC(=N)N)NC(=O)[C@H](Cc2ccc(O)cc2)NC(=O)[C@H](C(C)C)NC1=O)C(C)C)C(C)C,,"ICR mouse, blood","intramammary, 5 mg/kg, day 5, 3 d dosing",,AST,25.4 ± 0.63 IU/L
C=CCNc1c(O)cc2c(O)c1C[C@@H](C)C[C@H](OC)[C@H](O)[C@@H](C)/C=C(\C)[C@H](OC(N)=O)[C@@H](OC)/C=C\C=C(/C)C(=O)N2,measured: first-degree AV block,"patients with unresectable or metastatic GIST, STS or other tumours","intravenous, 500 mg/m^2",,treatment-emergent adverse events,57%
